Experimental data pooled from the literature.
Every numbered part comes from another study and shows a few of its results, in no order. Values joined by “and” are separate records of one study, mostly repeats; a detail may differ. Changes are numbered by the printed parent chain.
UniProt P34969, sequence (whole entry, looked up): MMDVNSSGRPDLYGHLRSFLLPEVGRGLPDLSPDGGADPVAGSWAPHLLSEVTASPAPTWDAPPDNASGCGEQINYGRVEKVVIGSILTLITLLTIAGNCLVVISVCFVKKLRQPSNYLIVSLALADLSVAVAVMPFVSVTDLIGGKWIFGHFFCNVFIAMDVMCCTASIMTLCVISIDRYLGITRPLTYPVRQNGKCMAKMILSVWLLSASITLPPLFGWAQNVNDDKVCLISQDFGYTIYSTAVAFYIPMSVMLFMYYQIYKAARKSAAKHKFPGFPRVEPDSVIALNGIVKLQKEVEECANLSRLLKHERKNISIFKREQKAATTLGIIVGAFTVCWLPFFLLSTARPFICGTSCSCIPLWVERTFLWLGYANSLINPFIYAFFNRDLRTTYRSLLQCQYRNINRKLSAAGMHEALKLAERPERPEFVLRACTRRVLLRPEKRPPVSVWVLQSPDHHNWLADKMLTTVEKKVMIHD

Sample 1
Target: CCND1, cyclin fold, Cln2 fusion (human)
Method: yeast growth competition, sequencing
Medium: yeast
Setting: strong parent motif
Relative to: not given
Direction: higher = stronger binding
Starting sequence: viral docking peptide; KGVKRKLFAEDSS
| Change | normalised enrichment score |
| --- | --- |
| KPVKRKLFAEDSS [G2P] | 2.63 |
| KGVKRKLFDEDSS [A9D] | 2.12 |
| KGVKRKLFAEDKS [S12K] | 0.88 |
| KGVKRKLFAEDYS [S12Y] | 1.37 |
| KGVSRKLFAEDSS [K4S] | 1.75 |
| KGVKRKLFAEDLS [S12L] | 1.42 |
| KGVKRSLFAEDSS [K6S] | 0.115 |
| KGVKPKLFAEDSS [R5P] | 0.298 |

Sample 2
Target: inorganic phosphate, free oxyanion
Method: microfluidic competitive inhibition
Medium: in vitro, cell-free expressed
Concentration: not given
Setting: derived from inhibition constants, unchanged parent 615000 nM
Direction: lower = stronger binding
Starting sequence: PafA, mature enzyme, eGFP fusion (Elizabethkingia meningoseptica, UniProt Q9KJX5); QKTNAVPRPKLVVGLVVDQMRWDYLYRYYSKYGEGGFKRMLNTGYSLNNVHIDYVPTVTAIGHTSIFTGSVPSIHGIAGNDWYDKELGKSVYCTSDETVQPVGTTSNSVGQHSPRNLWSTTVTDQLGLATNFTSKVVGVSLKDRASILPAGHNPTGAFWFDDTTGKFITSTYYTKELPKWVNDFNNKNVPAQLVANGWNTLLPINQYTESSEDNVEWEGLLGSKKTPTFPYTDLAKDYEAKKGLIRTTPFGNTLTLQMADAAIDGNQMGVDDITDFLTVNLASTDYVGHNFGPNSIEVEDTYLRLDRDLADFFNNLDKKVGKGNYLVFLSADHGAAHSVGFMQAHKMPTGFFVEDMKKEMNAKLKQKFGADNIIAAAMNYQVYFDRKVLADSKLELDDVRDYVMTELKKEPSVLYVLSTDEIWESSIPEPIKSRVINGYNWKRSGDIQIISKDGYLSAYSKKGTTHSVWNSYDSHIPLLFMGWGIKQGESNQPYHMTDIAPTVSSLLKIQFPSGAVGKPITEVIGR
| Change | phosphate dissociation constant |
| --- | --- |
| L389V | 717 µM |
| D143V | > 5140 µM |
| R526V | 641 µM |
| T208V | 672 µM |
| G219A | 553 µM |
| M404V | 605 µM |
| M496V | 516 µM |
| V416A | 680 µM |

Mixed results
| SMILES | target or system | assay | test system | conditions | measurement | result |
| --- | --- | --- | --- | --- | --- | --- |
| C[C@]12C=CC(=O)C=C1CC[C@@H]1[C@@H]2CC[C@@]2(C)[C@H]1CC[C@]2(C)O | HaCaT | – | – | 100 µM, 60 h | viability | 34.6% |
| Cc1c(N2CCNCC2)nc2ccc(Br)cc2c1C(=O)NC[C@H](CCC(=O)O)c1ccccc1Cl | 5-hydroxytryptamine receptor 7 (HTR7, Homo sapiens, UniProt P34969) | ligand displacement | – | 10 µM | inhibition | 13% |
| COc1ccc2c(c[n+](C)c3c4cc5c(cc4ccc23)OCO5)c1OC | – | – | mouse, microsomes or S9 | 2 µM, 0.5 h | remaining compound | 69.8% |
| CCCCCCCCCCCCCCCCOP(=O)([O-])OCC[N+](C)(C)C | Leishmania donovani | parasite growth, imaging | THP-1 | 40 nM, intracellular, amastigote | inhibition | 9% and 6% and 4% and 10% |

Repeated from above (mixed results):
| SMILES | target or system | assay | test system | conditions | measurement | result |
| --- | --- | --- | --- | --- | --- | --- |
| Cc1c(N2CCNCC2)nc2ccc(Br)cc2c1C(=O)NC[C@H](CCC(=O)O)c1ccccc1Cl | 5-hydroxytryptamine receptor 7 (HTR7, Homo sapiens, UniProt P34969) | ligand displacement | – | 10 µM | inhibition | 13% |
| C[C@]12C=CC(=O)C=C1CC[C@@H]1[C@@H]2CC[C@@]2(C)[C@H]1CC[C@]2(C)O | HaCaT | – | – | 100 µM, 60 h | viability | 34.6% |
